Assay results from different studies.
Protocols differ between the studies behind these lines.
FLT3 D835H: Receptor-type tyrosine-protein kinase FLT3 (FLT3, Homo sapiens, UniProt P36888, D835H)
FLT3 R834Q: Receptor-type tyrosine-protein kinase FLT3 (FLT3, Homo sapiens, UniProt P36888, R834Q)
FLT3 autoinhibited: Receptor-type tyrosine-protein kinase FLT3, autoinhibited (FLT3, Homo sapiens, UniProt P36888)

CCN1CCN(Cc2ccc(C(=O)Nc3ccc(C)c(NCc4cnc5[nH]ccc5c4OC)c3)cc2C(F)(F)F)CC1
remaining binding (FLT3 D835H; binding, competition with immobilised ligand; 1 µM): 3.8%

COc1c(Cl)cccc1Nc1c(-c2ccncc2C#C[C@@]2(C)CCCN2C(=O)/C=C/CN(C)C)[nH]c2c1C(=O)NCC2
remaining binding (Receptor-type tyrosine-protein kinase FLT3 (FLT3, Homo sapiens, UniProt P36888, D835V); binding, competition with immobilised ligand; 3 µM): 52%

CNC1C[S+]2CC[S+]3CC[S+](C1)[Ru-4]321([N]=C=S)[n]2c3ccc(OC)cc3c3c4c(c5cc(F)c[n+]1c5c32)C(=O)NC4=O (stereo not shown)
remaining binding (Receptor-type tyrosine-protein kinase FLT3 (FLT3, Homo sapiens, UniProt P36888, N841I); KinomeScan; 0.1 µM; reference: untreated): 23%

Cc1ccc(-c2c(/C=C(\C#N)C(=O)NC(C)C)n(CCCO)c3ncnc(N)c23)cc1
remaining binding (FLT3 R834Q; cell-free assay, competition with immobilised ligand; 1 µM): 96%

C=CC(=O)N1CCCC(n2c(=O)c3ncccc3n(Cc3ccc(Oc4ccccc4)cc3)c2=O)C1 (stereo not shown)
remaining binding (FLT3 D835H; cell-free assay, competition with immobilised ligand; 1 µM): 72%

C=CC(=O)N1CCc2ccc(-n3c(=O)ccc4cnc5ccc(-c6cnn(C)c6)cc5c43)cc21
remaining binding (Receptor-type tyrosine-protein kinase FLT3 (FLT3, Homo sapiens, UniProt P36888, K663Q); KINOMEscan; 1 µM; reference: DMSO control): 100%

CNC(=O)C1CCN(c2cc(C)c(F)cc2NC(=O)c2ccc(-c3cc(O)ccc3C)c(C)c2)CC1
remaining binding (FLT3 R834Q; binding, competition with immobilised ligand; 1 µM): 88%

Nc1ncc2c(n1)-c1c([nH]c3ccc(C4=CCOCC4)cc13)CCC2
remaining binding (Receptor-type tyrosine-protein kinase FLT3 (FLT3, Homo sapiens, UniProt P36888); binding, competition with immobilised ligand; 1 µM): 100%

Cc1cnc2nc1Nc1cccc(c1)COC/C=C/COCc1cc(ccc1OCCN1CCOCC1)N2
remaining binding (FLT3 autoinhibited; binding; 0.1 µM): 64%

CC(C)=CC1OC(C)(C)C2C=C3C(=O)C(Cl)=CC(O)C3C3C(O)C4OC4C(=O)C132 (stereo not shown)
remaining binding (FLT3 autoinhibited; cell-free assay, competition with immobilised ligand; 10 µM): 71%
